Experimental data from different studies.
Parts stem from different laboratories: compare values within a part only. Substitutions count along the parent as printed.

Series 1
Target: Ras GTPase-activating protein-binding protein 1, full length (G3BP1, Homo sapiens, UniProt Q13283)
Sequence of UniProt Q13283 (whole entry, looked up): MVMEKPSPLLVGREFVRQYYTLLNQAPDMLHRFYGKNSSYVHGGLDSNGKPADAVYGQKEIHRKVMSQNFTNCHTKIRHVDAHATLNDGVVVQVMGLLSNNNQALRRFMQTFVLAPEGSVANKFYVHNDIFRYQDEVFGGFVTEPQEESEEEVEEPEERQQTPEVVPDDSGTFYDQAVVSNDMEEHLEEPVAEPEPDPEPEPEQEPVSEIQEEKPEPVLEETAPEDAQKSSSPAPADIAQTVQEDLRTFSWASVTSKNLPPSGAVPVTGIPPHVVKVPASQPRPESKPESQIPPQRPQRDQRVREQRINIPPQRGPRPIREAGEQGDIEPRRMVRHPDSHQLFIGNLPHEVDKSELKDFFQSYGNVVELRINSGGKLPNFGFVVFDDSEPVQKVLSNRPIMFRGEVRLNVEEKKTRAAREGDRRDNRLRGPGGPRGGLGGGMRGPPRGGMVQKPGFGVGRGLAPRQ
Method: RNA Bind-n-Seq
Form: RNA
Matrix: in vitro
Tested at: 200 nM
Setting: whole 134-nt RNA, ends assumed
Together with: 150 mM KCl
Relative to: input library
Reading: higher = stronger binding
Endpoint: log2 enrichment
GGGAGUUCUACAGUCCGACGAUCUAACUUUAGAGGAGGAUCUGAUGGAUAUGGCAGUGGACGUGGCUUUGGGGAUGGCUAUAAUGGGUAUGGAGGAGGACCUGGAGGUGGCAAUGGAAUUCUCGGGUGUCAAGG: 0.139
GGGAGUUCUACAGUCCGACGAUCCCUGUGCUACACAUCGUAUGUACCGAAUCGGUUUUUUUGGGUUUUUUUGGUUUUUUUGGGGAAAGUAUUAUGUUACGCCGUUCGGAUCUGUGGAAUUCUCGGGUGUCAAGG: -1.03
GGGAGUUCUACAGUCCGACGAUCUGUGCUACACAUCGUAUGUACCGAAUCGGGGAAAAAGGGGUUUUUUUGGGGAAAAAAAGGGGAAAGUAUUAUGUUACGCCGUUCGGAUCUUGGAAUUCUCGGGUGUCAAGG: -0.308
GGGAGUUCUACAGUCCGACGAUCGUCCUGUGCUACACAUCGUAUGUACCGAAUCGGGAAAAAGGGAAAAAGGGUUUUUGGGAAAGUAUUAUGUUACGCCGUUCGGAUCUGCACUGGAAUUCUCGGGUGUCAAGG: -0.526
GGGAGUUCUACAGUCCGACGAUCCACAGACAACACGCACCCACACAGACACAGAGGGAAGGGGUUGGGAAGGGGACAGGGUGCACAGCAGGGCGGGGUAGGACCCCAGCCCCUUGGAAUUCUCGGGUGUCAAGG: 1.76

Series 2
Target: CCNA2, cyclin fold, Cln2 fusion (human)
Method: yeast growth competition, sequencing
Matrix: yeast
Setting: strong parent motif
Relative to: not given
Reading: higher = stronger binding
Endpoint: normalised enrichment score
Starting sequence: E2F1 docking peptide (human); PPVKRRLDFETDH; partner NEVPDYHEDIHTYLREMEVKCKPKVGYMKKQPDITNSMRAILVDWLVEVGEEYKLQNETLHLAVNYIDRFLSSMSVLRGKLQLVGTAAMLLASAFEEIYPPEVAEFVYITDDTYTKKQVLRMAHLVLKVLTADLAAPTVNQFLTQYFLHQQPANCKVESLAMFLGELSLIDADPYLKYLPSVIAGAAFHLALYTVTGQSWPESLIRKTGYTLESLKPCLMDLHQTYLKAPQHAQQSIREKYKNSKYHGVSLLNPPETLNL
PPVKRRLDFETIH [D12I]: 6.14
PPVKERLDFETDH [R5E]: -0.0496
PPWKRRLDFETDH [V3W]: 5.36
PPVMRRLDFETDH [K4M]: 5.1
PSVKRRLDFETDH [P2S]: 6.35
PPVKRRLDFVTDH [E10V]: 6.2

Series 3
Target: Interferon regulatory factor 3, full length, phosphomimetic (IRF3, Homo sapiens, UniProt Q14653, residues 1-427, S386D/S396D/S398D/S402D/T404D/S405D)
Method: protein-binding microarray
Form: double-stranded DNA, one strand shown
Matrix: in vitro
Tested at: 2540 nM top
Setting: 60-bp whole probe
Together with: salmon DNA 0.4 mg/ml
Relative to: random background probes
Reading: higher = stronger binding
Endpoint: fitted relative affinity
All sequences stand within: GCCTAGCAC … GTCTTGATTCGCTTGACGCTGCTG
Target sequence (chain): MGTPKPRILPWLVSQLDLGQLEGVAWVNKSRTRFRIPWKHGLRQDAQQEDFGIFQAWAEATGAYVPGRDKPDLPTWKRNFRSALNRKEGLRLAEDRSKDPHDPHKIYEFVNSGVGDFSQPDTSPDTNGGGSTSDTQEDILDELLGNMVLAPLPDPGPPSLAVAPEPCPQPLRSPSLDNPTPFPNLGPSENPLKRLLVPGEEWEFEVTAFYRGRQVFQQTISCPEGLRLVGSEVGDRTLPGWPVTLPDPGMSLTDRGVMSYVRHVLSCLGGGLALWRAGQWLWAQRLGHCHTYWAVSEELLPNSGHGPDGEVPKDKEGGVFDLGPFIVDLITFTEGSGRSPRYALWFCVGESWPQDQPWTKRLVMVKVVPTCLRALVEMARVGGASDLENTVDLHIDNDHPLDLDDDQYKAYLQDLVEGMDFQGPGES
GGGCATTTTTTTATCAATCAGTGCTAG: 0.178 z-score
GACGGTTTCGATACTGGGGACGTGCTA: 6.46 z-score
TTAGATTTCGGGTATCAATTAGTGCTA: 1.57 z-score
GACGGACTGGCCACTGGGGACGTGCTA: -0.949 z-score
GGCGGTTTCGGGTTTCGGGACGTGCTA: 5.99 z-score

Other studies, line by line
PhoQ, residues 284 288 289 292 302 303 ASTSDA
fold induction (PhoP, residues 12 14 15 18 19 SGWQI (Escherichia coli, UniProt P23836); Sort-seq, item: YFP reporter; E. coli; PhoQ-PhoP variant library, together with: 10 µM Mg2+; relative to: high Mg2+ state, higher = stronger signaling): 1.47

Some of these lines once more (series 1):
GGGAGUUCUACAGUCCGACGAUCCACAGACAACACGCACCCACACAGACACAGAGGGAAGGGGUUGGGAAGGGGACAGGGUGCACAGCAGGGCGGGGUAGGACCCCAGCCCCUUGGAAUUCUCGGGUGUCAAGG: 1.76
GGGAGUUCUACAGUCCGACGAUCUGUGCUACACAUCGUAUGUACCGAAUCGGGGAAAAAGGGGUUUUUUUGGGGAAAAAAAGGGGAAAGUAUUAUGUUACGCCGUUCGGAUCUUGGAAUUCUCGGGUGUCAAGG: -0.308
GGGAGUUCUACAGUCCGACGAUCGUCCUGUGCUACACAUCGUAUGUACCGAAUCGGGAAAAAGGGAAAAAGGGUUUUUGGGAAAGUAUUAUGUUACGCCGUUCGGAUCUGCACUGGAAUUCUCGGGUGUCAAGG: -0.526
